Experimental data pooled from the literature.
Parts stem from different laboratories: compare values within a part only.

Sample 1
Target: TAR DNA-binding protein 43, full length, His tag (TARDBP, Homo sapiens, UniProt Q13148, residues 1-414)
Method: RNA Bind-n-Seq
Form: RNA
Matrix: in vitro
Concentration: 20 nM
Notes: 6-mer, flanks averaged, single round
With: 150 mM LiCl
Relative to: input library
Reading: higher = stronger binding
Endpoint: 6-mer enrichment (R)
GAUUAA: 0.86
AACUUU: 0.948
GGGUAU: 1.19
GCCUCU: 0.947
UUAUCU: 0.992
UGUCUC: 0.936
GAUGGG: 1.26
GAGGCU: 0.975
GGGAGA: 1.18
CGGACU: 1.07
GGGAUU: 1
UUCUUC: 0.95
UCGCUG: 0.891
UCUACU: 0.871
GACCGG: 0.949
UGCCUG: 1
UACUCC: 0.967

Sample 2
Target: Sal-like protein 4, full length isoform A (SALL4, Homo sapiens, UniProt Q9UJQ4, residues 1-1053)
Sequence of UniProt Q9UJQ4 (whole entry, looked up): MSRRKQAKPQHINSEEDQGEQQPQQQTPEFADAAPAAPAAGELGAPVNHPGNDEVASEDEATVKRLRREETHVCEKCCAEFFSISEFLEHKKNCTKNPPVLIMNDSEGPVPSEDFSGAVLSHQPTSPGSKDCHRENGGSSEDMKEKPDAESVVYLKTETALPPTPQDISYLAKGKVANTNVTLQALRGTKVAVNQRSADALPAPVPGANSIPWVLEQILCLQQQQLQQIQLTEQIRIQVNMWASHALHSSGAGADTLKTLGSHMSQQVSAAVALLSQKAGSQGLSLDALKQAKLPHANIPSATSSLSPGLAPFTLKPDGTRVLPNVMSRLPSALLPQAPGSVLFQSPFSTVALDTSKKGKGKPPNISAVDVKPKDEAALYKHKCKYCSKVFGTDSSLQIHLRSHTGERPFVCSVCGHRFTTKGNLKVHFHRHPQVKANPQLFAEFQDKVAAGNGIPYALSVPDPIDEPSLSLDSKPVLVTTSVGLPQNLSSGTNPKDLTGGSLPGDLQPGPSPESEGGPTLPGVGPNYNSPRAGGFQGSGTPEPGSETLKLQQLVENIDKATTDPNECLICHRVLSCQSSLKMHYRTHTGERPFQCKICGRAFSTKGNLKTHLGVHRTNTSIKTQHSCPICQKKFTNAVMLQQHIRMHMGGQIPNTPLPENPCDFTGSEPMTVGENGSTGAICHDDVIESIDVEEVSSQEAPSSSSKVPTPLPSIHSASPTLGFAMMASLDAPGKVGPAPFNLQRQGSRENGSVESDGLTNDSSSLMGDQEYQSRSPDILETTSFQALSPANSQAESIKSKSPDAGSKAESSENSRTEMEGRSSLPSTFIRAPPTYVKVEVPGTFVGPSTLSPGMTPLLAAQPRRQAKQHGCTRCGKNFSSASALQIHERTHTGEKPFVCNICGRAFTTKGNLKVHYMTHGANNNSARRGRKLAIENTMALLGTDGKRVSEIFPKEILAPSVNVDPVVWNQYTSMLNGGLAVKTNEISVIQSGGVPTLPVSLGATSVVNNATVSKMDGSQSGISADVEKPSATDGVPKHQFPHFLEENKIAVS
Method: universal PBM
Form: double-stranded DNA, one strand shown
Matrix: in vitro
Concentration: 600 nM
Notes: 8-mer, flanks averaged, mean of replicates
Reading: higher = stronger binding
Endpoint: E-score
CATTGATA: 0.143
AACGCTGT: -0.0308
ACGTTGTG: 0.0447
GATCCGCA: -0.286
CTCGGGGA: -0.278
CAAATTGC: 0.144
ATTAGGCA: 0.11
GCATGTGA: -0.0518
AGTTCGCG: -0.175
AAGCAAAA: 0.236
CATGGTGA: -0.0303
AATAGCAT: 0.269
CCCAGATC: -0.296
AGTGTGAT: -0.0342
TCTCATCA: 0.148
AGGTGCAT: 0.0459
GTCACTAA: 0.153

Sample 3
Target: RNA binding protein fox-1 homolog 2, RRM domain, GST-SBP tag (RBFOX2, Homo sapiens, UniProt O43251-10, residues 100-194)
Method: RNA Bind-n-Seq
Form: RNA
Matrix: in vitro
Concentration: 365 nM
Notes: natural RNA segment, single round, ends assumed
Relative to: no-protein control
Reading: higher = stronger binding
Endpoint: RBNS enrichment (R)
Shared flanks, not repeated: GGGAGUUCUACAGUCCGACGAUC … UGGAAUUCUCGGGUGCCAA
Target sequence (chain): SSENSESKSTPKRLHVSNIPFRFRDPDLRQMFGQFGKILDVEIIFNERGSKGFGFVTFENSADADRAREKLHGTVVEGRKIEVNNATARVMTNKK
GGUUUUGUAUAUGGGAUUUUCUAUUUAUAUAGCUUCUAUUUGUAUAUUUUGAGAUAAUUUAUUUAAUAUACUUUUAUAUAAAUAAAGGUGAUUGGGAAUUGAGACAAUCG: 0.989
AAAAGCAAGGGAAGUGGCUACUUUGGAAUGCUCUUUAUAAUUUUUAUAAGCUGAAUUUUAUAUGUUACUGUAUAUAGUAUUUAUUUGAUUUUACUUACGCUACCUCUCCA: 0.694
ACAAGCAGGCUUGUUUCCACCAAUAGUGCCAAAAAGAUAUUGCCUAAUGUGCACCUGUGAGGUGUAACCCCCCGCUUUGGAGACGAGAUGGCUCUUGUUCAGUCAAGACC: 0.197
AGCUCCUUUAGAGAUUGUCAAGUCCUGAGCGAUGAGCUGCCCUUAAUCCUCAGAAGCCUUACAAAAAUUGAGAUGUACCAUUUCUACCCUUUGAGAAAAAAGAAAUAGAA: 0.639
UCUUUCAUACGAUACUCUUUCUCAAGAAGGGGGCUCCCUGGGAUCUCCAGGUGUACUGCACUUACCCUCAAUCCAGCCCCGGAGAAGCAAGUGAAAAGGGUGGGUCCCUC: 0.504
GAAUUUUUUAUUUUUUGGUAUUGGCCAUAAGCAACAAUUUUCAGAUUUGCACAAAAAGAUACCUUAAAAUUUGAAACAUUGCUUUUAAAACUACUUAGCACUUCAGGGCA: 1.47
GUCAGAACUGUCCCCUUGGAGAUGUGACUGUGUUUGUAACAAUAUUGUCCUCACUGCCGUGGACACGUGGACACGUCCCACCUGAACCCCCUGCCGGACCAGGAGGCUCC: 0.362
GCCAUGCAGAGCCCUGGCCGCUGGAGACUCUUAAAGCCCCCACAGCCCUCCAGGUCCUCCAGCUCUGUCAGAUGGAGGGCUCUCGGGCCUAGAUCCCACUGGUAGGCCUC: 0.397
UUGCAGUGAUAUUUAGUUAAUGAUUUGUUUUGGAAAACAUGCAGUUAGGAGUAUUUUUGUAUUUUGUCAGAUGUUUAGGAGACAGACUUUCGGGUCAUGUUUCUUGUCUU: 0.326
CAUGCCAGUUCCUGAGCAUCCUUUAUGUGCAUUUGCAUUCUCAGUGGUCCUGCCUGUAUGCUGGUUCACAUCCAUCUUUUCAUCUGCACACUCUUUUUCUCGGCGAAUGC: 0.664
AGGACAGCCCCACCCUGGAAUGCCAAUGUCAGCCUCAAGCCCCUCGGUUCUUAACACAGGAGACCCGACAAUGAGUGCACAAGUCAUGGACAUUCACGCUCAGUAGCUUA: 0.52
AAUUUCUAGAAAUGUAUCCUUCUCACAAAGUAGAGACCAAGAGAAAAACUCAUUGAUUGGGUUUCUACUUCUUUCAAGGACUCAGGAAAUUUCACUUUGAACUGAGGCCA: 0.461

Sample 4
Target: Centromere-binding protein 1, full length, His-tagged (CBF1, Saccharomyces cerevisiae, UniProt P17106, residues 1-351)
Sequence of UniProt P17106 (whole entry, looked up): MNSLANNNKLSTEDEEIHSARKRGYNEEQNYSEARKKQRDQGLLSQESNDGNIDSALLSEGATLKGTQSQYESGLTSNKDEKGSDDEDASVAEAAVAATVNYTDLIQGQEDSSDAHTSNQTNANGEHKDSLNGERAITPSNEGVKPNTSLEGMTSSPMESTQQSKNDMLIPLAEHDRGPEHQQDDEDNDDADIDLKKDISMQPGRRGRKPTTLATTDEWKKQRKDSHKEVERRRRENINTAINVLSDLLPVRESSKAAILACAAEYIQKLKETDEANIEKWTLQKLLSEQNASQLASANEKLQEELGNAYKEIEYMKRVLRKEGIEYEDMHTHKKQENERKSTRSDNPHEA
Method: competition protein-binding microarray
Form: double-stranded DNA, one strand shown
Matrix: in vitro
Concentration: 2 µM
Notes: whole 60-bp probe, lowest competitor level
With: Pho4 competitor, 0.05 µM
Reading: higher = stronger binding
Endpoint: fluorescence intensity
Shared flanks, not repeated: … GTCTTGATTCGCTTGACGCTGCTG
AATTTCTTCAGGACTTGCAAAAAGAATCTAACTGAT: 80.4 a.u.
CAACGAGCTCTTTGCCACGTATCAACTGGAGAAGAG: 70.5 a.u.
AGATATACACGATCGCACATGGTTCCAAGACGGTTA: 106 a.u.
TGATGAAATCTCTGTGACCTGGAGCATCAATAACGG: 84.1 a.u.
AACCAATACCACCGTCACGTGTTTTCAAGAAAGAAG: 5550 a.u.
ACTGCAAGCGACTATCATGTGATACGATAGCCGGGT: 666 a.u.
GCTCATTCCACCTCACACCTGATTAACTAAAAGTTT: 211 a.u.
GTCTTGTCTCATTGATACGTGGGTGTCCCCACTTCA: 91.9 a.u.
CTTCTGTAAATTTGTAGCGTGGGTGGACGCGCCCCG: 80.7 a.u.
CCCCATCGGACTCGGCACGATACTGGCGTTGAACGC: 83.3 a.u.
GTCCGAAAGGACAATCACATGCAGAGGTTCAAAGTA: 329 a.u.
TGCTTCTTTGAAAAGCACATGCCGTTTCACCACAGG: 114 a.u.
CGCGGAATGACTGGACCCGTGGGTAATCGCAGGGGA: 69.3 a.u.
TTGCTCGAACATTGTCATGTGATGCTAAACATTGTA: 1170 a.u.
AAATTACTAAGTTGGACCGTGGGTGACGCCGTATGA: 57.7 a.u.
CGTAAACCTGACACCCTCGTGGGAGGAGCGCGCCCC: 68.1 a.u.
CCGGAATACCGAAAGCACGGGCCAGACCGAAATCGA: 80.6 a.u.
CTTTCCCGATCTTGTCACCAAACTTTAGCACATTTG: 74.5 a.u.
CTTATATCCTGGCTCAACGTGAAGAGATTCTAGATC: 75.3 a.u.
GTTAAAACTCAATTATGCGTGGGACTTCTCAATTAG: 81.9 a.u.
CCGACGTCCGCCTTGCATGCGCTCTCGCATTTTTAA: 78.5 a.u.
CAATACTCTTTGTCCCACGATGCAACTTTGAAAGGT: 71.6 a.u.
TGCGCAACAACTTGAAAAGTGGGTGTATGTCTAGAA: 78.3 a.u.
AAAGCGGTAATTTGCCCAGTGGGTGCAGATATCTAT: 66.1 a.u.
TTTCTGAAAAAAATGCGCGTGAAAAGGAATCATTTG: 111 a.u.
